Results gathered from unrelated publications.
A part holds a random share of what one study measured. Changes are numbered by the printed parent chain.

Series 1
Target: RNA binding protein fox-1 homolog 2, RRM domain, GST-SBP tag (RBFOX2, Homo sapiens, UniProt O43251-10, residues 100-194)
Technique: RNA Bind-n-Seq
Molecule type: RNA
Medium: in vitro
Concentration: 365 nM
Notes: natural RNA segment, single round, ends assumed
Baseline: no-protein control
Reading: higher = stronger binding
All sequences stand within: GGGAGUUCUACAGUCCGACGAUC … UGGAAUUCUCGGGUGCCAA
Residues (chain): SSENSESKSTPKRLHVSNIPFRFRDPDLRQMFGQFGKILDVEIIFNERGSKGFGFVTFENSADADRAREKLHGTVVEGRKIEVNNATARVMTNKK
| Sequence | RBNS enrichment (R) |
| --- | --- |
| UCAGUGGAUCCUGUUAAGGAGUGCUUCCAGCCUCAGCCUGGGCCCCUCCCACCUGGCAUGGUAAGGGGGUAAGGGACGCUCAGGGAAGAGGUGCAUUCUCCGACCUCUGC | 4.16 |
| CAUCCACAUGGUGACAGGUCUGGACCCCGAGAAGUUGAUCAGCCUGCACACAGUGGAGCUUCGGGGGAACCAGCUGGAAAGCACCCUGGGAAUCAAUCUUCCUAAGCUGA | 0.533 |
| CAGCCAGCACAGGAUUUGUCCUCAUUCCGUGGGUGAUGGAUGAAUCUAUUGGAGUCCUGAAUAAAUGCUGCUCUUUGGCUUCCAAAACCCUGCUCUCUCUGGCCUUGGGU | 0.299 |
| CCUGUAUCCUGUGAGGCCUGGAGCUUUUCAAACACUAGAGGGGGCCUUAGAGUAAGUGGAAAGGACUUCUAAAAUGUGUGUGUGCUUUGCCUUCCAGAAAGCCAUCUUUG | 0.734 |
| CUCCCAAGUAGCUGGGAUUACAGGCACCCGCCACCACGCCCAGCUAAUUUUUGUAUUUUUGUAGAGAUGGGGUUUCACGAUGUUGGCCAGGCUGGUCUCAAACUUCUGAC | 0.617 |
| AGUGCAGUGGCUCAAUCUCAGCUCACCACAACCUCUGCCUCCUGGCUUCAAGCGAUUCUUCUGCCUCAGCCUCCCCGAAUAGUUGGGAUUACAGGCACCCACCACCACGC | 0.428 |
| CUUCUUCUCUUUCUUUCUUUUUUUUUAUGGUUGGAAGAAAAAAGAUUCUUUGACUAGUGAAAAUCUCAUAAAAUUUAAAUACGUGUGAGUAAAACACAUGCCUGAACACA | 0.782 |
| GUAGAAUAUUGAAUAUUUAAAAGGCACACUACAUCUGAUAGUCAAUGUAAAUAUUUUCUUUCCAAGUUGUAAGUUUUCAUAUCAUGUGUUGUAAAGUUUUCCUAAACGAG | 0.573 |
| CAAGCAUAGGUUUUCCCAGACCACAAUGCUGAUAUAUCUUAUUUAAUGCAGACUGUAUUCUUGCAGCGUGUUGUUUCCUUUGUGACUCAAGGUUGAAUUAAAAUGCCUGU | 0.365 |
| UGCUCUCUACCAUGAAAGUGUAAAUACUGUAAUGUCUAAUCUAUUUAUCACAACUGACUACUGGACCAGGGCCCAGAAAUGUGGGUCAAGUUACAUGUGAAUUUGUUUGG | 0.43 |
| GGGUCUCCAGUCCUGUUUGCCUGAAUGCUCUGGGAUCUAUGCCUAGAGCAAGCCUGAAGACGGCCCCUGGAAGACAAACCCAAGCUGAGGGAAUCCAGGCCCAGCAAGAG | 0.438 |
| GAUCCUGUUGUAACUAUCUUCGGAAGGCAGCAGUAUCUUCUGGAACUUCCAUAUUCCAUUCCUUCCUCCUAAGGGACAAUGGAAGUUCUCAGAAGAGUAUCUUCAGUAAG | 0.326 |

Series 2
Target: Sal-like protein 4, full length isoform A (SALL4, Homo sapiens, UniProt Q9UJQ4, residues 1-1053)
Chain of UniProt Q9UJQ4 (whole entry, looked up): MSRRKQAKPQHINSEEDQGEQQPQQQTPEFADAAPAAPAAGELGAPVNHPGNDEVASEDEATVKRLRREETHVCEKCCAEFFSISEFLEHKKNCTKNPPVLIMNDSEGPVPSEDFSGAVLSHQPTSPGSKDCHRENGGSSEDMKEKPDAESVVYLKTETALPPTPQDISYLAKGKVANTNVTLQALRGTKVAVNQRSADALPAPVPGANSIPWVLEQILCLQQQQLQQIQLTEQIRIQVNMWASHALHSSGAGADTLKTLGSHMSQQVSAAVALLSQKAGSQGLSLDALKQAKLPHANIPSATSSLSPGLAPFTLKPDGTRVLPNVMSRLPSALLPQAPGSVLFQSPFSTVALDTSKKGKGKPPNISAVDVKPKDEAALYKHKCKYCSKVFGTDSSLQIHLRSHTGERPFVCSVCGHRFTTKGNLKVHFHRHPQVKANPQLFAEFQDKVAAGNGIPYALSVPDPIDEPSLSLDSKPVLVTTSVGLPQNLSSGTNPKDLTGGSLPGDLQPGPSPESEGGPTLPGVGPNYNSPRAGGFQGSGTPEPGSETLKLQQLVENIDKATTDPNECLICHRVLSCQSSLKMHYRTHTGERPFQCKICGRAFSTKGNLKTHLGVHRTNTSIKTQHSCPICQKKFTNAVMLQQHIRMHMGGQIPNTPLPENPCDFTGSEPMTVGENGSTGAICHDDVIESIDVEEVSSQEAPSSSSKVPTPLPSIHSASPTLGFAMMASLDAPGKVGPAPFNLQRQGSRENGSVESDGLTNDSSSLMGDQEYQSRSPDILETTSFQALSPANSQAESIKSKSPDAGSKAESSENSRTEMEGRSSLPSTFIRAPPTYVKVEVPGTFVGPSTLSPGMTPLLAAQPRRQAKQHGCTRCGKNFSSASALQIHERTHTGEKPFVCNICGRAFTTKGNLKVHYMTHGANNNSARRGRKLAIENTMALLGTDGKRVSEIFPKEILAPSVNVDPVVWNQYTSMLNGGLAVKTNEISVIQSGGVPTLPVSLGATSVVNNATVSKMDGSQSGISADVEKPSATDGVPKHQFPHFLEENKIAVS
Technique: universal PBM
Molecule type: double-stranded DNA, one strand shown
Medium: in vitro
Concentration: 600 nM
Notes: 8-mer, flanks averaged, mean of replicates
Reading: higher = stronger binding
| Sequence | E-score |
| --- | --- |
| ATCGGTCG | -0.117 |
| CTTGGTCA | 0.0267 |
| GGAGGGAA | -0.188 |
| AATGGTCA | 0.138 |
| ATTAAAGG | 0.286 |
| CAGATAAA | 0.213 |
| GGATAATA | 0.34 |
| ACCGCTGC | -0.379 |
| GAATGTGC | 0.0556 |
| ACCGTCTC | -0.0179 |
| AAAAAACG | 0.176 |
| GATCCAGA | -0.0323 |
| CATGGAGG | -0.0535 |
| ATCAAGAA | 0.306 |
| ATAGTTTC | 0.205 |
| CTCGCTCA | -0.0576 |
| ATGCCCAC | -0.164 |
| AGCCTGCA | -0.0951 |
| CGATGTGA | 0.0729 |

Series 3
Target: ABI1, truncated, D143A, DHFR fusion (Arabidopsis thaliana)
Technique: DHFR PCA, deep sequencing
Medium: yeast
Notes: methotrexate growth selection, single substitutions
Added: (+)-ABA 200 µM
Baseline: wild-type fitted maximum
Reading: higher = stronger binding
Parent: PYL1, truncated, DHFR fusion (Arabidopsis thaliana); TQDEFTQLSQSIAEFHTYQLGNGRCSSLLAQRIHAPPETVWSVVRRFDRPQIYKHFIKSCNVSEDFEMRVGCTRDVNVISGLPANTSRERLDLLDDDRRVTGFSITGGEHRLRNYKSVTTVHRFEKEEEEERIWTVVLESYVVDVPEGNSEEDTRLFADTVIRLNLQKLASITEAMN; partner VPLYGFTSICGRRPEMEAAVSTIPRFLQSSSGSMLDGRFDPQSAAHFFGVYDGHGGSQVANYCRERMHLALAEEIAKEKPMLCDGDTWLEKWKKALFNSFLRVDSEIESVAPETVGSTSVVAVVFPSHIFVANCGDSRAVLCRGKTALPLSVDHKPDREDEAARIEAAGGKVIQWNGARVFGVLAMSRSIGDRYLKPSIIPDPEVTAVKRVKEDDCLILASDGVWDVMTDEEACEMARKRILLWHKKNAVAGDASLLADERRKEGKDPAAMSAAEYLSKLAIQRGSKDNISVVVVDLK
| Change | relative binding score |
| --- | --- |
| N22P | 101% |
| R69I | 105% |
| I172S | 63.2% |
| D97H | 103% |
| K126A | 108% |
| S42F | 68.9% |
| S42V | 77.2% |
| V76G | -3.61% |
| N177L | 100% |

Series 4
Target: CCNA1, cyclin fold, Cln2 fusion (human)
Technique: yeast growth competition, sequencing
Medium: yeast
Notes: weak parent motif
Baseline: not given
Reading: higher = stronger binding
Parent: BRCA2 docking peptide (human); PSIKRNLLNEFDR; partner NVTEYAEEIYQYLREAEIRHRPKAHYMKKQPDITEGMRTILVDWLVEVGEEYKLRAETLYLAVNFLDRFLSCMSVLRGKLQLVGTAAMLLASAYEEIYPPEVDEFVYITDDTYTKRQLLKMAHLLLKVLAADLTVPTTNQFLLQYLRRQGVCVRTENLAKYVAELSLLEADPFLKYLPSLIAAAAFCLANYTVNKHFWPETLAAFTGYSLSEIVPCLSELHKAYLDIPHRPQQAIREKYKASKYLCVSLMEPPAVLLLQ
| Change | normalised enrichment score |
| --- | --- |
| K4P | 0.0675 |
| L7S | 0.165 |
| K4W | -0.292 |
| I3D | -0.0639 |
| L8Q | 0.169 |
| K4S | 0.238 |
| N6D | 0.281 |
| R5S | 0.538 |
| F11L | 0.134 |
| N6A | 0.461 |
| L7W | 0.166 |
| P1A | 0.262 |
| N6I | -0.0162 |
| R5M | 0.457 |
| L7E | -0.0614 |
| E10N | 0.364 |
| N9Y | 0.696 |

Series 5
Target: HLF, bZIP domain (human)
Technique: DHFR protein complementation
Medium: yeast
Notes: single substitutions, most at no-binding floor
Baseline: wild-type JUN-FOS pair
Reading: higher = stronger binding
Parent: JUN, bZIP domain (human); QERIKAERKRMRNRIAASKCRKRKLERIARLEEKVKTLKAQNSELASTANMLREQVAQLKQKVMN; partner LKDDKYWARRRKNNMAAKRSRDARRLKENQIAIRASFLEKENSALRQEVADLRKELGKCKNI
| Change | binding fitness [natural log] |
| --- | --- |
| R30N | -1.47 |
| R30Q | -1.29 |
| L31I | -1.49 |
| K36N | -1.43 |
| V56A | -1.55 |
| N42K | -1.53 |
| E32W | -1.46 |
| T37W | -1.27 |
| V56N | -1.56 |
| R53I | -1.15 |
| V56F | -1.54 |
| S47V | -1.35 |
| V35S | -1.53 |
| L59T | -1.46 |
| A29N | -1.48 |
| L52A | -1.59 |
| L45M | -1.45 |
| L38Q | -1.6 |
| V56S | -1.41 |
| N42S | -1.5 |
| I28G | -1.38 |
| L52M | -1.55 |
| E44W | -1.45 |
| T48L | -1.43 |

Series 6
Target: Cyclic AMP-dependent transcription factor ATF-1 (ATF1, Homo sapiens, UniProt P18846, residues 1-271, full length assumed)
Technique: protein-binding microarray
Molecule type: double-stranded DNA, one strand shown
Medium: in vitro
Concentration: not given
Notes: k-mer, scored over probes, only values ≥0.25
Reading: higher = stronger binding
Target sequence (chain): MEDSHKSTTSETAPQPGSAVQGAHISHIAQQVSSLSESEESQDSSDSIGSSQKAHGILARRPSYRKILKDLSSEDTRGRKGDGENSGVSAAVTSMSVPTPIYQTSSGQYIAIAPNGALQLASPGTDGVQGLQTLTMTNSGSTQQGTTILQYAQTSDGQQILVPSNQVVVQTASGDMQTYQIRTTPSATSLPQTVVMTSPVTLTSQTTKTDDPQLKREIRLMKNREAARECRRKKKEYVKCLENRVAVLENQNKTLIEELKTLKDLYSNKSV
| Sequence | E-score |
| --- | --- |
| CGTGACA | 0.356 |
| CACGAAA | 0.257 |
| CACGTAC | 0.282 |
| CGTAATA | 0.345 |
| AAATGAC | 0.294 |
| CGCGTCA | 0.48 |
| AAACGTA | 0.302 |
| AAACGTC | 0.337 |
| ATGTGAC | 0.281 |
| AACACGT | 0.363 |
| CGCGTAA | 0.343 |
| CCGTGAC | 0.41 |
| ACATACG | 0.333 |
| GTCACGA | 0.363 |
| ACGCGTG | 0.35 |
| ATGACGC | 0.476 |
| CCCGTCA | 0.392 |
| CGCTACG | 0.333 |
| CACGTGC | 0.256 |
| AGTCACG | 0.274 |
| GCCGTCA | 0.32 |
| ACGTCAA | 0.435 |

Series 7
Target: Histone acetyltransferase KAT6A, both winged helices, GST fusion (KAT6A, Homo sapiens, UniProt Q92794, residues 1-181)
Technique: protein binding microarray
Molecule type: double-stranded DNA, one strand shown
Medium: in vitro
Concentration: not given
Notes: 8-mer, flanks averaged, mean of 2 arrays, mostly near background
Baseline: not given
Reading: higher = stronger binding
Target sequence (chain): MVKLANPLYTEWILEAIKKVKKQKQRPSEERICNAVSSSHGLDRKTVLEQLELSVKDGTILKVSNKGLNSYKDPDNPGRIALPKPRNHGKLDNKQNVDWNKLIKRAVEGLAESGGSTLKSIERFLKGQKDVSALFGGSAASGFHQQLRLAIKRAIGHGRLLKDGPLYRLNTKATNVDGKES
| Sequence | E-score |
| --- | --- |
| AATCATTG | -0.233 |
| CAAGACTA | -0.00875 |
| GCGATTCC | 0.171 |
| ATCGCCAG | 0.0314 |
| CATCTTTC | -0.307 |
| CACAGTAG | -0.095 |
| CATGTGAG | -0.0956 |
| CAAGGGTG | 0.0542 |
| ACCTCCAT | -0.0994 |
| CAGCTAGC | -0.0139 |
| AACCAGGG | -0.195 |
| ATAACGAA | -0.0428 |
| CCAAGGAC | -0.0499 |
| ATTCAGCG | 0.151 |
| ACAGAGCA | -0.206 |
| AGAGACAA | -0.182 |

Further values, each from its own experiment
| Molecule | target | assay | system | setting | how to read | endpoint | value |
| --- | --- | --- | --- | --- | --- | --- | --- |
| PhoQ, residues 284 288 289 292 302 303 SLANIV | PhoP, residues 12 14 15 18 19 TTLRV (Escherichia coli, UniProt P23836) | Sort-seq, item: YFP reporter | E. coli | PhoQ-PhoP variant library, added: 10 µM Mg2+ | baseline: high Mg2+ state, higher = stronger signaling | fold induction | 1.84 |

Excerpt of the above (series 6):
| Sequence | E-score |
| --- | --- |
| CACGTAC | 0.282 |
| CACGAAA | 0.257 |
| AGTCACG | 0.274 |
| AACACGT | 0.363 |
| GTCACGA | 0.363 |
| CGCGTCA | 0.48 |
| CGTAATA | 0.345 |
| ACGCGTG | 0.35 |
| AAACGTA | 0.302 |
| AAATGAC | 0.294 |
| CGTGACA | 0.356 |
| ATGACGC | 0.476 |
| CCCGTCA | 0.392 |
| ACATACG | 0.333 |
| CACGTGC | 0.256 |
| CGCGTAA | 0.343 |
| ATGTGAC | 0.281 |
| CGCTACG | 0.333 |
| CCGTGAC | 0.41 |
